Measurements of several laboratories.
Every numbered part comes from another study and shows a few of its results, in no order.

Block 1
Target: Sal-like protein 4, full length isoform B (SALL4, Homo sapiens, UniProt Q9UJQ4-2, residues 1-616)
Technique: universal PBM
Molecule type: double-stranded DNA, one strand shown
Sample: in vitro
Tested at: not given
Setting: 8-mer, flanks averaged, mean of replicates
Direction: higher = stronger binding
Residues (chain): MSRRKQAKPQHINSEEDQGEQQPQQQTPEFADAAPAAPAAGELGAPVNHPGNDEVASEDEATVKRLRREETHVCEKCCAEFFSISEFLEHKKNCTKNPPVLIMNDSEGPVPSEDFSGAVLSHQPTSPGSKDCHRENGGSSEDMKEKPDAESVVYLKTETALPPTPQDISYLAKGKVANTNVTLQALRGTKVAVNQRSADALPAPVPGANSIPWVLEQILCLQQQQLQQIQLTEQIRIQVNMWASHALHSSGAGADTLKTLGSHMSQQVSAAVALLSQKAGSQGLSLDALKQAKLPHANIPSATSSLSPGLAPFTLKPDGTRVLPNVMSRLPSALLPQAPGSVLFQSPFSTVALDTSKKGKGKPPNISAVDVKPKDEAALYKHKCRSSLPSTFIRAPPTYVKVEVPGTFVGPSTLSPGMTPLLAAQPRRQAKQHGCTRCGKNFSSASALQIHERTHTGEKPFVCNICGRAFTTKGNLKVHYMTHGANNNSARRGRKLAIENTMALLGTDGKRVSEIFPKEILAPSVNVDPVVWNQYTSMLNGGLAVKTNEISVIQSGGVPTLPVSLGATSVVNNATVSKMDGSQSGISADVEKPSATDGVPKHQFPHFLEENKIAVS
Strand | E-score
AATCCATC | 0.107
ACCCAACA | -0.171
AACCCTTG | -0.174
GGCGCCAA | -0.135
CATCTTTC | 0.12
CTGACGAA | -0.0209
ATCGGCAG | -0.0993
ATTGGTAA | 0.182
CGAAGGAG | -0.193
ACCACCCA | -0.0949
CAGTGAAG | -0.00154
AGAAAAGC | -0.0367
CACAACCC | -0.25
AACTGATA | 0.192
TAGACCAA | 0.131
CACCAACG | -0.165
AAAAGTCA | 0.0518
AAGGAGTC | -0.0483
CTTATGAC | 0.19
GACTAGGA | -0.0273
CGTTCAGC | -0.202
CATCCATC | -0.051
CCCGCGAC | -0.305
GCGTGAAA | 0.102
CCATTTGC | 0.00214

Block 2
Target: Centromere-binding protein 1, full length, N-terminal tag (CBF1, Saccharomyces cerevisiae, UniProt P17106, residues 1-351)
Chain of UniProt P17106 (whole entry, looked up): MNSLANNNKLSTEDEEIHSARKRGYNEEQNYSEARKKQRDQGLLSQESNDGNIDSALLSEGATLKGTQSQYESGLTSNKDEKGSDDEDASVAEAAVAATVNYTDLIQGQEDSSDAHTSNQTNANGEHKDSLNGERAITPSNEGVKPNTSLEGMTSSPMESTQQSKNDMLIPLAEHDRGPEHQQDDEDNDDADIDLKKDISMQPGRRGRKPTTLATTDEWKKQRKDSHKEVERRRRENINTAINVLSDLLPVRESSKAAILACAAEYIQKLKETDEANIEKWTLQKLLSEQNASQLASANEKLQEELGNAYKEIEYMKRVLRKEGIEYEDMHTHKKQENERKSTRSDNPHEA
Technique: protein-binding microarray
Molecule type: double-stranded DNA, one strand shown
Sample: in vitro
Tested at: 0.8 µM
Setting: whole 60-bp probe, no competitor
Direction: higher = stronger binding
Constant ends, left off below: … GTCTTGATTCGCTTGACGCTGCTG
Strand | fluorescence intensity [a.u.]
CTACTTTCCGATTATCACACTTTAGGAGCCGTGTTC | 562
CTAACAATTCATTGTCATGATGTACATAGAAAATTC | 554
GAAGACGTTTATGTGCACGTTTACGTTTGTTTTTAG | 646
CCTAACTACTATAGTCACCAGTCATAGCTTCGTACA | 567
GAAGTATAGCCAAAGAGCACGCCAAGTGGGGTCTAG | 498
CCTAACTACTATACTCATGTCACATAGCTTCGTACA | 553
GAATAGAGATTTTTGCACGAGGATTATTGCCGTTAG | 662
GAATCTTTTCCTCGTGATTCTTTGTGATGCTCATAG | 1360
TGTACGAAGCTATGACATGACGCTATAGTAGTTAGG | 520
GAATATTTCTCATTTCACGTTATTTTCTCCAAATAG | 640
CTAACATTTGAACACCCCGTCACCTGAGTCAGGTTC | 1060
CCTAACTACTATATGAACGTGATATAGCTTCGTACA | 1050
CTAGAGGAATTTCGTAACGTGTATAGAATCAAATTC | 624
GAAAGGCTAGTCTTTCACATGTAAGTCCGTGAATAG | 618
GAAAGGTTCCCTTTTCTGATGACTCTTCTTGCTTAG | 520
GAAACTATTGCTCAGCACGACCAACTATAGCTCTAG | 549
CTAGTTGTAACAGGACAGCTGACAATTGCTAAGTTC | 702
GAACTTCTTAGACCGCACGTGATGATATTGAGATAG | 8050
CTAATGGGAATCCCCTACGTGGCACTTAGATACTTC | 498
CTAATTCGTTTACGGCGCACGACAGACACTTCATTC | 515
GAAAACTAGATGGCGCTCGTGATCCTGAAAACGTAG | 1940
GAAATAAAAATAAATCATGTGTTATGCTATCTCTAG | 1260
CTAATTACACTCGCGAACGTGCGTCCGGGATGATTC | 528
CTACAGCGTGCTGCTGATGTCAAAGAATTGGGATTC | 516
CCTAACTACTATATGTGCATGAAATAGCTTCGTACA | 530

Block 3
Target: Protein max, full length (MAX, Homo sapiens, UniProt P61244-2, residues 1-151)
Technique: protein-binding microarray
Molecule type: double-stranded DNA, one strand shown
Sample: in vitro
Tested at: not given
Setting: k-mer, scored over probes, only values ≥0.25
Direction: higher = stronger binding
Strand | E-score
ATGCTGGC | 0.295
ACGTCACG | 0.347
AATCCACG | 0.306
ACGCACGC | 0.421
GCATGTTA | 0.401
ACGCGCGG | 0.342
CGACACGC | 0.377
AACCATGT | 0.336
CACGCTCC | 0.372
TGCATGCA | 0.338
AAACACGA | 0.309
ATGCGGGC | 0.277
CCATGCTC | 0.403
CAACATGA | 0.297
ACATGTAC | 0.344
CAGCCATG | 0.256
AGAACGTG | 0.4

Block 4
Target: Interferon regulatory factor 7, full length, phosphomimetic (IRF7, Homo sapiens, UniProt Q92985, residues 1-503, S101K/S471D/S472D/S475D/S476D/S477D/S483D/S484D/S487D)
Technique: protein-binding microarray
Molecule type: double-stranded DNA, one strand shown
Sample: in vitro
Tested at: 250 nM
Setting: 60-bp whole probe
With: salmon DNA 0.4 mg/ml
Baseline: random background probes
Direction: higher = stronger binding
Constant ends, left off below: GCCTAGCAC … GTCTTGATTCGCTTGACGCTGCTG
Target sequence (chain): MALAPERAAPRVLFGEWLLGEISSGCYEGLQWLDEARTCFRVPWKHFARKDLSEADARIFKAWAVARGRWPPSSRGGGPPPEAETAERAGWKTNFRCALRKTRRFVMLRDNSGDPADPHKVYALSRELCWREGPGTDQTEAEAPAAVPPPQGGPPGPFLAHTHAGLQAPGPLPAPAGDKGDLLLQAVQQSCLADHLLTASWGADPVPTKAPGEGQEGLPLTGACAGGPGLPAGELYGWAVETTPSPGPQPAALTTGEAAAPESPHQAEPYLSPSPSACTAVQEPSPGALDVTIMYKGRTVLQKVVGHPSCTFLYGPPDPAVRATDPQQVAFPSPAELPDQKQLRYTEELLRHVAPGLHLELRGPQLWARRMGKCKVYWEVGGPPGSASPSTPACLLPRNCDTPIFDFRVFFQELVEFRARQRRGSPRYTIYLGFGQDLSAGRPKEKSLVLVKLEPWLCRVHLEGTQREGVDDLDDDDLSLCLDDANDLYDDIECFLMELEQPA
Strand | log fluorescence
TTAGGTCTCGACACTGGGTTAGTGCTA | 0.031 z-score
TTTCCTTTACATTCCCCATTGTGCTAG | 2.63 z-score
GACGGGATCCTTCTCCTGACGTGCTAG | -0.164 z-score
GGTGGTGATGGTGAGTAAGAGTGCTAG | -1.57 z-score
TTAGGTGTCCTTATCCTTTAGTGCTAG | -0.338 z-score
TTAGATATCCGTCTCGATTAGTGCTAG | 0.651 z-score
TTAGGTCTCGGTCTTGGTTAGTGCTAG | 1.37 z-score
GACGGACTGCTACTGCTGAAGTGCTAG | -0.677 z-score
GACGATATCGTGTATCGAGACGTGCTA | -0.324 z-score
CTAGGACTGGGTATCGGTTAGTGCTAG | 1.01 z-score
CTGGACCCACTTCCAAATGGGTGCTAG | 1.2 z-score
TTAGGACTGGACACAGGGTTAGTGCTA | -0.561 z-score
GACGATTTCAGACTGGAGGCGTGCTAG | 0.173 z-score
GACGGTTTCGACTATCAGGACGTGCTA | 5.62 z-score
GACGGTTTCGGAGTGGGGACGTGCTAG | 2.72 z-score
GAGGATCTCAGTATCGAGACGTGCTAG | -0.285 z-score
ATAGATATCAGTCTCGATTAGTGCTAG | 1.48 z-score
TTAGATTTCAGTCCCGATTAGTGCTAG | 0.912 z-score
GACGGACTGCTACTGCTTACGTGCTAG | -0.639 z-score
TCAGCTCTTATATACCTGACTGTGCTA | 0.304 z-score
CATCATTGCCTATTTTTCCCCGTGCTA | 0.361 z-score
TCAAATACAAGTTTCTCACTGTGCTAG | 0.726 z-score
TTAGAACTGAGTCTCGAGTAGTGCTAG | 0.214 z-score
TTAGGTATGCTACTGCTTTAGTGCTAG | -0.594 z-score
GACGGACTGGACTATCGGGACGTGCTA | -0.647 z-score

Block 5
Target: RNA binding protein fox-1 homolog 2, RRM domain, GST-SBP tag (RBFOX2, Homo sapiens, UniProt O43251-10, residues 100-194)
Technique: RNA Bind-n-Seq
Molecule type: RNA
Sample: in vitro
Tested at: 365 nM
Setting: natural RNA segment, single round, ends assumed
Baseline: no-protein control
Direction: higher = stronger binding
Constant ends, left off below: GGGAGUUCUACAGUCCGACGAUC … UGGAAUUCUCGGGUGCCAA
Construct (chain): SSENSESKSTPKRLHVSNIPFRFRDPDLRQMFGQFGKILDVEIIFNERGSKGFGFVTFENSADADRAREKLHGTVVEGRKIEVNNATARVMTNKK
Strand | RBNS enrichment (R)
UAUUAGAAUGCUGACCUUUCAUAUGGAUUAUUGUGAGUCAUCAGAGUUUAUUAUAACUUAUUGUUCAUAUUCAUUUCUAAGUUAAUUUAAGUAAUCAUUUAUUAAGACAG | 0.466
GCAGAGUUCUAGGUACACCACCCGUCUUAAUAUGGGAGCUCCCAUUCUGUAUCAAAAUGGACUGUUCAUAUCAGAGCUGAGAACUAAAGCACUUCGUUCAUUAUCAGAAA | 0.425
CGAUGCGUGUCUUUCCCACGCAGAGAAGCCCAGUCUCUUCUCUGGAUCUGGGCCUUUGAACAACUGGGGGGCGUUUUCUCCCCCCCAUUGGGACACCAGUCUUCGGUGUG | 0.286
CUGGUGGAACCCUGCCCCUUACCAGCCUUGAUGGCAGCGGGAACCUGGUGCUGGGGGCAGCCGGUGCGGCCCCAGGGAGUCCCAGCUUAGUAACCUCGCCUCUCUUCUUG | 0.631
GACCUGAGGAAUCCCAGGCCUGUGAGAAAAGCAAAAAUUCACAUUGCAGCACAUGAUGCCAGAAAUAGCACUGAAUCAAGAAAAUAGCCAUUGCGGAGCUGCCCUCUUGA | 0.749
GAGGACAGGCAUCAAGUUCUUAGCCUCUGUAGCUCUUAGCUUUCCCAUCUUUCCCUGCAAGGCCACACCGUGCAUUUACAGCAGUGUGGCAAGGUGUAGGAGGGACCUUG | 0.832
GCUGUAGUGGUUGGUGGAUCCUGGCAUUUCAGAGAAAAGGUCAUGAGGUGGUUUUGGGCUGUGGUUUCCAGUCUGACCCAGGAGGAACUGGCUAGGCUGCUUCAGUUUAC | 1.11
GUUCUCAAGGCUCUCUACAGGUUGCCUCUUGUACUCAGAAGUAUUAAACACUGAUUAUUAAACCUUCUGCGAUGCAGCCUUGACUUAUUUGUGGGAAAUCGCAAUCAGAG | 0.38
UAAGCUACUGAUUUGGAUUUGUUUUAUCGUAUCCUAAAGUCUUUGUUGUUGAAAUGAAAGGUAUUUUGGGGUUAUUUAUUAUGAAAACAACAUGCUCUUAAUGUUGAUUU | 0.344
UGUGCUUUCUUGCUCUGGACUGCGAGUGCACCCAGGGUUCUUCUAUCCCGACACAGCUCUGUGCCUUCAGCCCCAGGUCCACAGCGGGGACACUCGAGCCUCUGCUCUCA | 0.501
UACUACUGAGAAAGGAACUAGGUAGUUUGGUGAAUGAAAGAAAACAAAAUUUGAAGAUAUUAUGUAGUGGUCAAGGACCACUAAUAUUUGGGGAGUGUGUUUUGUCUGUU | 1.28
AUACGUUAUUUUGCCUCUAAACUUUUAUUGAAGUUUUAUUUGGCAGGAAAAAAAAUUGAAUCUUGGUCAACAUUUAAACCAAAGUAAAAGGGGAAAAACCAAAGUUAUUU | 0.728
